Assay results of several laboratories.
Lines come from different studies, so protocols differ. ± marks the error that the study gave.

O=C1c2ccncc2C(=O)c2c1[nH]c1ccccc21  AUC(0-t) (Sprague-Dawley rat female, plasma; intravenous, 5 mg/kg): 5.31 ± 2.79 µM·h
CCCC(CCC)NC(=O)c1ccc2c(c1)OCO2  AUC(0-t) ratio (Sprague-Dawley rats, plasma; oral, 20 mg/kg; baseline: female over male): 0.92
C1=C/COCc2cc(ccc2OCCN2CCCC2)Nc2nccc(n2)-c2cccc(c2)COC/1  AUC(0-t) (LC-MS/MS; Sprague-Dawley rat, male, plasma; oral, 36 mg/kg, added: voriconazole 30 mg/kg oral): 3840 ± 2190 ng·h/mL
Cc1cccc(CNC(=O)c2cn(CCNC(=O)c3ccccc3Sc3c([N+](=O)[O-])ncn3C)c3cc4c(cc3c2=O)OC(F)(F)O4)n1  AUC(0-t) (Sprague-Dawley rat, male, plasma; intramuscular, 30 mg/kg of parent compound): 472 ± 222 ng·h/mL
COC[C@@H](CC(C)C)NC(=O)c1ccc(C)c(C)c1  AUC(0-t) ratio (Sprague-Dawley rats, plasma; oral, 100 mg/kg; baseline: female over male): 1
CN1CCC[C@H](CN2c3ccccc3Sc3ccccc32)C1.Cl  AUC(0-t) (Wistar rat female, eye; oral, 16 mg/kg): 10400 ng·h/mL
Cc1cccc(CNC(=O)c2cn(CCNC(=O)c3ccccc3S)c3cc4c(cc3c2=O)OC(F)(F)O4)n1  AUC(0-t) (Sprague-Dawley rat, male, plasma; intravenous, 5 mg/kg of parent drug): 102 ± 7.16 ng·h/mL
COc1cc2nccc(Oc3ccc(NC(=O)NC4CC4)c(Cl)c3)c2cc1C(N)=O  AUC(0-t) increase (Sprague-Dawley rats male, plasma; oral, dose not given, added: isavuconazole; baseline: without isavuconazole): 50.2%
COc1cccc(-c2n[nH]c(SCc3ccccn3)n2)c1OC  AUC(0-t) (Sprague-Dawley rats, male, plasma; oral gavage, 100 mg/kg, single dose): 183000 ng·h/mL
CSc1ccccc1C(=O)NCCn1cc(C(=O)NCc2cccc(C)n2)c(=O)c2cc3c(cc21)OC(F)(F)O3  AUC(0-t) (Sprague-Dawley rat, male, whole blood; intramuscular, 3 mg/kg of parent compound): 40.1 ± 10.6 ng·h/mL

Excerpt of the above:
Cc1cccc(CNC(=O)c2cn(CCNC(=O)c3ccccc3Sc3c([N+](=O)[O-])ncn3C)c3cc4c(cc3c2=O)OC(F)(F)O4)n1  AUC(0-t) (Sprague-Dawley rat, male, plasma; intramuscular, 30 mg/kg of parent compound): 472 ± 222 ng·h/mL
